{"data": "Assay results collected from several papers", "note": "Every numbered part comes from another study and shows a few of its results, in no order."}
{"data": "Sample 1", "target": "Interferon regulatory factor 5, full length, phosphomimetic (IRF5, Homo sapiens, UniProt Q13568-2, residues 1-514, K96S/S451D/S453D/S456D/S462D)", "technique": "protein-binding microarray", "molecule type": "double-stranded DNA, one strand shown", "matrix": "in vitro", "tested at": "250 nM", "notes": "60-bp whole probe", "with": "salmon DNA 0.4 mg/ml", "reference": "random background probes", "direction": "higher = stronger binding", "all sequences stand within": "GCCTAGCAC … GTCTTGATTCGCTTGACGCTGCTG"}
{"Sequence": "CTCCTTCTCTAACCTCTCTAAGTGCTA", "log fluorescence": "0.335 z-score"}
{"Sequence": "CTAAAAATCCCATTAAATTTGTGCTAG", "log fluorescence": "0.299 z-score"}
{"Sequence": "GACGGTTACGACACTGGGGACGTGCTA", "log fluorescence": "-0.0729 z-score"}
{"Sequence": "TCATGTTTATGTCTGGGACTGTGCTAG", "log fluorescence": "-0.158 z-score"}
{"Sequence": "GACGATCTCAGTCTCGATACGTGCTAG", "log fluorescence": "0.787 z-score"}
{"data": "Sample 2", "target": "Fragile X messenger ribonucleoprotein 1, C-terminal low-complexity region (Fmr1, Mus musculus, UniProt P35922)", "technique": "RNA Bind-n-Seq", "molecule type": "RNA", "matrix": "in vitro", "tested at": "200 nM", "notes": "whole 134-nt RNA, ends assumed", "with": "150 mM KCl", "reference": "input library", "direction": "higher = stronger binding", "all sequences stand within": "GGGAGUUCUACAGUCCGACGAUC … UGGAAUUCUCGGGUGUCAAGG"}
{"Sequence": "UCCUCAAGUCCUGUGCUACACAUCGUAUGUACCGAAUCGGUGGUGGUGGGGAAAGUAUUAUGUUACGCCGUUCGGAUCUGCACUUCCAGC", "log2 enrichment": -0.0474}
{"Sequence": "GCAGGAAGUAAAAACAAAUGGAAAUGCUUCGGAUAGUGGCAGGGGUGGGGGUUGCUAAGGAAAGGGUGAGAUGGGAGUGGGUAAAGAGUU", "log2 enrichment": 0.197}
{"Sequence": "UCAAGUCCUGUGCUACACAUCGUAUGUACCGAAUCGGUUUUUGGUGGUUUUUGGAAAGUAUUAUGUUACGCCGUUCGGAUCUGCACUUCC", "log2 enrichment": -0.454}
{"Sequence": "GUCCUGUGCUACACAUCGUAUGUACCGAAUCGGGAAAAAGGGUUUUUGGGUUUUUGGGAAAGUAUUAUGUUACGCCGUUCGGAUCUGCAC", "log2 enrichment": -0.263}
{"Sequence": "GCAGGAAGUAAAAACAAAUGGAAAUGCUUCGGAUAGUGGCAGGGGUGGGGGUUGCUAAGGAAAGGGUGUGAUGGGAGUGGGUAAAGAGUU", "log2 enrichment": 0.236}
{"data": "Sample 3", "target": "Sal-like protein 4, full length isoform B (SALL4, Homo sapiens, UniProt Q9UJQ4-2, residues 1-616)", "technique": "universal PBM", "molecule type": "double-stranded DNA, one strand shown", "matrix": "in vitro", "tested at": "not given", "notes": "8-mer, flanks averaged, mean of replicates", "direction": "higher = stronger binding"}
{"Sequence": "GTGCGTCA", "E-score": -0.147}
{"Sequence": "CAAGTAGG", "E-score": -0.123}
{"Sequence": "ATAGTTGA", "E-score": 0.327}
{"Sequence": "AAGGGACC", "E-score": -0.193}
{"Sequence": "AGTTCAGA", "E-score": 0.00579}
{"Sequence": "CCTATAGC", "E-score": 0.117}
{"data": "Further values, each from its own experiment"}
{"Molecule": "PhoQ, residues 284 288 289 292 302 303 NLALSC", "target": "PhoP, residues 12 14 15 18 19 NYFRM (Escherichia coli, UniProt P23836)", "assay": "Sort-seq, refers to: YFP reporter", "test system": "E. coli", "setting": "PhoQ-PhoP variant library, with: 10 µM Mg2+", "scale": "reference: high Mg2+ state, higher = stronger signaling", "measurement": "fold induction", "value": 1.37}
{"note": "Some of these lines once more (sample 3):"}
{"Sequence": "CCTATAGC", "E-score": 0.117}
{"Sequence": "CAAGTAGG", "E-score": -0.123}
{"Sequence": "AGTTCAGA", "E-score": 0.00579}
